# Measurements of several laboratories.
# Protocols differ between the studies behind these lines. ± gives the spread as reported.
SMILES,assay,test system,setting,how to read,quantity,result
[11CH3]Oc1ccc(Cc2ccncc2)nc1-c1cccc(Cl)c1,ultrafiltration,"monkey, plasma",,,fraction unbound,1.6%
CC(C)(O)c1ccc(N2Cc3c(ccnc3-c3ccc(F)cc3OCC(F)(F)F)C2=O)cc1,,PAMPA,pH 5,,Papp,31.3 ×10⁻⁶ cm/s
CCOc1ccc2cc(-c3nn(CC4CCN(C)CC4)c4ncnc(N)c34)ccc2n1,,"piglets, Landrace x Large White, plasma","oral, 10 mg/kg twice daily, 2 h after dose 9, 7 dpi",,plasma concentration,10.2 µM
NCCCn1c2ccc([N+](=O)[O-])cc2c(=O)n1Cc1ccccc1,resazurin,"peritoneal macrophages, BALB/c mice","48 h, 10% FBS",,CC50,117 ± 5.6 µM
C[Si]1(C[C@@H](CN)CC(=O)O)CCCC1,,"male Sprague-Dawley rat, plasma","oral, 30 mg/kg, 1 h, single dose",,concentration,32.1 µM
CC[C@H](C)[C@H](NC(=O)[C@H](Cc1ccccc1)NC(=O)[C@H](CCN)NC(=O)[C@H](CCCNC(=N)N)NC(=O)[C@H](Cc1ccccc1)NC(=O)[C@H](Cc1ccccc1)NC(=O)[C@H](CCCCN)NC(=O)[C@H](CO)NC(=O)[C@H](CC(C)C)NC(=O)[C@H](CCCNC(=N)N)NC(=O)[C@H](CCSC)NC(=O)[C@H](C)N)C(=O)N[C@@H](CC(C)C)C(=O)N[C@@H](CCCCN)C(=O)N[C@@H](CCCNC(=N)N)C(=O)N[C@@H](CCCCN)C(=O)N[C@@H](CCCCN)C(=O)O,circular dichroism,20% TFE in PBS,"200 µM, pH 7.4, 25 °C",,helicity,9%
O=c1nc(NO)ccn1[C@@H]1O[C@H](CO)[C@@H](O)[C@H]1O,"Western blot, refers to: CYP2B6","rat, normal, liver","oral, 80 mg/kg twice daily, 5 days",relative to: control group,protein level,1.5 fold
CC(C)(Sc1ccncc1-c1ccc(C#N)c2ccccc12)C(=O)OC1OC(C(=O)O)C(O)C(O)C1O (stereo not shown),,"adult men, plasma","oral, 15 mg verinurad, moderate renal impairment",relative to: impaired over normal renal function,Cmax ratio,212%
O=c1c(/C=N/NC(=S)N/N=C/c2cc(Cl)ccc2O)coc2ccccc12,cyclic voltammetry,anhydrous DMF,"Cu2+ complex, glassy carbon electrode",,peak potential separation,0.155 mV
CCCCCCCCCCCCCCCC(=O)N[C@@H](CCCCN)C(=O)N[C@@H](CCCCN)C(=O)N[C@@H](CO)C(=O)N[C@@H](CCCNC(=N)N)C(=O)N[C@@H](C)C(=O)N[C@@H](CC(C)C)C(=O)N[C@@H](Cc1ccccc1)C(N)=O,,"cynomolgus monkey, female","30 mg/kg, day 5",,prothrombin time,11.8 ± 0.6 s
[11CH3]c1ccc2nc(C3CCC3)n(-c3ccc4[nH]ncc4c3)c2n1,extrapolated from mouse,"human female, Lower large intestine wall",,,absorbed dose,5.9 µSv/MBq
CC(=O)N[C@H](CCNC(=O)c1cc(NC(=O)c2cc(NC(=O)c3cc(NC(=O)c4nccn4C)cn3C)cn2C)cn1C)C(=O)Nc1cn(C)c(C(=O)Nc2cc(C(=O)Nc3cc(C(=O)Nc4cc(C(=O)NCCCN(C)CCCN[14C](=O)c5cccc([14C](=O)O)c5)n(C)c4)n(C)c3)n(C)c2)n1,,"NSG male mice, U-251 xenograft, U-251 tumour","intraperitoneal, 20 nmol per animal, 24 h",,tissue concentration,0.65 mg/kg
C=C(C)C(=O)Nc1ccc(-c2c(-c3ccc(Oc4nccc(C)n4)cc3)c3c(N)ncnc3n2C)cc1,,"cynomolgus monkey, plasma","intravenous, dose not given",,clearance,1.7 mL/min/kg
NS(=O)(=O)c1ccc(-n2cc(CNc3ccc(Cl)cc3)c(-c3ccc(OCc4ccccc4)cc3)n2)cc1,,"rat, gastric mucosa","oral, 60 mg/kg, 17 h",relative to: control score subtracted,ulcer severity index,0.93 ± 0.12
CC(C)(O)c1ncc([S@](N)(=O)=NC(=O)Nc2c3c(cc4c2CCC4)CCC3)s1,,"healthy human volunteers, plasma","oral, 100 mg once daily, day 1, spray-dried dispersion",,Tmax,3 h
N=C(N)NCCC[C@@H]1NC(=O)[C@H](Cc2c[nH]c3ccccc23)NC(=O)[C@@H](CC2CCCCC2)NC(=O)[C@@H]2CCCN2C(=O)[C@@H](NC(=O)CCc2ccccc2)CCCNC1=O,,"C57BL/6J mouse, plasma plasma","subcutaneous, 1 mg/kg single dose",,MRT(0-last),40.7 min
CCCC(CCC)NC(=O)c1ccc(O)c(O)c1,,"male Sprague-Dawley rat, plasma","oral, 200 mg/kg of parent drug",,Tmax,0.5 h
CC[C@H](C)[C@H](NC(=O)[C@H](Cc1ccccc1)NC(=O)[C@H](CC(=O)O)NC(=O)[C@H](CCCNC(=N)N)NC(=O)[C@H](Cc1ccccc1)NC(=O)[C@H](Cc1ccccc1)NC(=O)[C@H](CCCN)NC(=O)[C@H](CO)NC(=O)[C@H](CC(C)C)NC(=O)[C@H](CCCNC(=N)N)NC(=O)[C@H](CCSC)NC(=O)[C@H](C)N)C(=O)N[C@@H](CCN)C(=O)N[C@@H](CCC(N)=O)C(=O)N[C@@H](CCCNC(=N)N)C(=O)N[C@@H](CCCCN)C(=O)N[C@@H](CCCCN)C(=O)O,circular dichroism,20% TFE in PBS,"200 µM, pH 7.4, 25 °C",,helicity,21%
CCCC[C@H](NC(C)=O)C(=O)N[C@H]1CC(=O)NCCCC[C@@H](C(=O)N[C@@H](C(=O)N2CCC[C@@H]2C(N)=O)C(C)C)NC(=O)[C@H](Cc2c[nH]c3ccccc23)NC(=O)[C@H](CCCN=C(N)N)NC(=O)[C@@H](Cc2ccc3ccccc3c2)NC(=O)[C@@H]2CCCN2C1=O,,"healthy dogs, plasma","subcutaneous, 2.25 mg/kg per day, day 5 predose, median",,plasma histamine,12.3 ng/mL
CSCOC1C(=O)C2(C)C(OCSC)CC3OCC3(OC(C)=O)C2C(OC(=O)c2ccccc2)C2(O)CC(OC(=O)C(O)C(C=C(C)C)NC(=O)OC(C)(C)C)C(C)=C1C2(C)C (stereo not shown),,"male Sprague-Dawley rat, plasma","intravenous, 1 mg/kg",,MRT(0-t),4.4 h
CN1CCC[C@]1(C)/C=C/S(=O)(=O)NC(=O)Nc1c2c(cc3c1CCC3)CCC2,,"human, plasma","oral, 100 mg twice daily, 14 days, multiple ascending dose",relative to: day 14 over day 1,accumulation ratio AUC(0-tau),1.4
CC(C)[C@H](NC(=O)[C@@H]1CCCN1C(=O)[C@H](CCCNC(=N)N)NC(=O)[C@H](CS)NC(=O)[C@H](Cc1c[nH]c2ccccc12)NC(=O)[C@H](CCCNC(=N)N)NC(=O)[C@@H](Cc1ccccc1)NC(=O)[C@H](Cc1c[nH]cn1)NC(=O)[C@H](CCC(=O)O)NC(=O)[C@H](CS)NC(=O)[C@H](CS)NC(=O)CNC(=O)[C@@H]1CC(=O)N[C@@H](CCCNC(=N)N)C(=O)NCC(=O)N[C@@H](CC(=O)O)C(=O)N[C@H](Cc2ccc(O)cc2)C(=O)N1)C(N)=O [technetium-99m labelled],,"C57 mouse, female, B16/F1 melanoma","intravenous, 0.037 MBq, 24 h",relative to: tumour over kidneys,tumour to tissue ratio,1.72
COCCOCCOCCOCCOCCOCCOCCOCCC(=O)NCCCc1cc2cc3nc(cc4[nH]c(cc5nc(c(OC)c1[nH]2)C(=O)C5(C)C)cc4CCc1ccc(C(=O)O)cc1)CC3(C)C,,water with 5% DMF,room temperature,,integrated Qy/B absorption ratio,0.2
Cn1c(=O)oc2ccc(-c3ccc(CC(C#N)NC(=O)C4CNCCCO4)c(F)c3)cc21 (stereo not shown),refers to: lymphadenopathy,human volunteers,"oral, dose not given",,treatment-emergent adverse event incidence,7.4%
CC(C)[C@@H]1NC(=O)[C@@H](NC(=O)[C@H](Cc2ccc(O)cc2)NC(=O)[C@@H]2CCCN2C(=O)[C@H](C)N)CSSC[C@@H](C(=O)O)NC(=O)[C@H](CO)NC(=O)[C@H](Cc2c[nH]c3ccccc23)NC(=O)[C@H](CO)NC(=O)CNC(=O)[C@H](CCCNC(=N)N)NC(=O)[C@H](Cc2ccc(O)cc2)NC1=O,residual EphA4 binding inhibition,C2C12 conditioned medium,"200 µM, 37 °C",,half-life,8 to 12 h
C[C@H]1Nc2nc(=O)c3[nH]ccc3n2Cc2ccc(Cl)cc21,,"dog, both sexes, plasma",100 mg/kg,relative to: dog over human 10 mg,exposure ratio,not detected
CC[N+]1(Cc2ccc3ccc(O)c(C#N)c3n2)CCCC1CNC(=O)c1cc(S(N)(=O)=O)ccc1OC (stereo not shown),,KMOPS buffer,"0.1 mM, pH 7.2",,λmax,372 nm
CC(C)[C@H](NC(=O)CNC(=O)[C@H](CCC(N)=O)NC(=O)[C@H](C)N)C(=O)O,,"human male, plasma","intravenous infusion, 10 mg/kg single, 15 min infusion, geometric mean",,volume of distribution,3 L/kg
